Measurements pooled from the literature.
Values joined by “and” are separate records of one study, mostly repeats; a detail may differ. ± gives the spread as reported.

N#Cc1ccc2c(c1)[C@H]1CCCN(C(=O)c3ccc4[nH]cnc4c3)[C@H]1C2
insulin AUC change (meal tolerance test; human, Phase II trial; 80 mg once daily, day 28, AUC0-2 h, adjusted mean; reference: baseline): 150 pmol/h/L

Cc1ccc([C@@H]2O[C@H](CO)[C@@H](O)[C@H](O)[C@H]2O)cc1Cc1ccc(-c2ccc(F)cc2)s1
change in fasting serum insulin (Japanese type 2 diabetes patients; 25 mg, day 17; reference: day 1): 0.8 µU/mL

O=C(O)CNC(=O)Cc1ccccc1
sarcomere length (ventricular cardiomyocytes, C57BL/6 mouse; dose not given, 0.788 s): 1.71 µm

N#Cc1ccc2c(-c3ccncc3)c(-c3ccc(F)cc3)nn2c1
log2 fold change (kinase binding, competitor, MIB/MS competition, measured: RIM11; Candida albicans cell lysate; 10 µM; reference: DMSO): 0.2

COc1ccc(-c2cncc(N[C@@H](C)c3cccc(NC(=O)c4cncc(C)c4)c3)n2)cc1OC
delta delta Ct (measured: rno-miR-329-3p; rat SU5416/hypoxia model, lung; dose not given, unit not given; reference: SU5416/hypoxia vehicle): -0.117

Cn1cc(-c2ccc(-c3cncc(Cl)c3N3CCC4(CCNC4=O)CC3)cc2)cn1
log2 fold change (COLO 205; gene expression, microarray, measured: PLEKHG2 mRNA; concentration not given, 6 h; reference: untreated cells): 1.16

CC(c1cc2ccccc2s1)N(O)C(N)=O (stereo not drawn)
amount (measured: PGF2α; human whole blood; 3 µM, with: Escherichia coli): 630 ± 423 pg/mL blood

O=C(O)CC(O)CC(=O)O
z-scored log2 fold change (binding, equilibrium dialysis LC-MS; 5 µM, thermostabilized A2AR-BRIL construct; reference: no-protein control, direction not given): 0.267

CN(C)C(=O)Oc1cccc([N+](C)(C)C)c1
train-of-four ratio (neuromuscular block reversal; rat; dose not given, 20 (unit not given), with: cisatracurium; reference: T1 twitch): 98.9

C[C@H](Oc1ccc(Br)cc1-c1ccon1)C(=O)O
latency change (muscle velocity recovery cycles; human, tibialis anterior muscle; 1200 mg single dose, 3.5 h post-dose, frequency ramp, first response at 30 Hz): 95.6%

C[C@H](NC(=O)c1c(C(F)F)nn(C)c1Oc1cccc(C(F)(F)F)c1)c1ccc(C(=O)O)cc1
objective response rate (human, advanced tumours; 250 mg, irRECIST): 0%

C[C@@H](O)CCOC(=O)C[C@@H](C)O
plasma glucagon (human; oral drink, dose not given, 30 min post dose, median, all participants): 19 pM

CCOC(=O)NCc1ccc(O)cc1
radical scavenging (DPPH radical; 300 µg/mL): 7.33 ± 1.57%

Cn1cc(Nc2nccc(-c3ccc4c(c3)CN(C3COC3)CC[C@H]4NC(=O)c3cn(C(C)(C)C)nn3)n2)cn1
pathway activation z-score (measured: Chondroitin Sulfate Degradation; splenic B cells, mouse; in vivo, 30 mg/kg, IgD-activated B cells; reference: vehicle, positive = activation): 1.34

Cc1noc(C)c1-c1cc(C(O)(c2ccccn2)c2ccccn2)c2nc(C3CC3)[nH]c2c1
maximum inhibition (measured: CCR2 expression; human, peripheral blood; 0.6 mg, day 8, 1599 study): 34.5%

O=C(c1ccc(OCCN2CCCCC2)cc1)c1c(-c2ccc(O)cc2)sc2cc(O)ccc12
writhing count (male ICR-CD1 mice; icv, 100 µg/animal, with: acetic acid 1%): 41 and 39 and 66 and 54 and 59

CC(C)[C@H](NC(=O)[C@H](Cc1ccc(O)cc1)NC(=O)[C@H](Cc1ccc(O)cc1)NC(=O)[C@@H]1CCCN1C(=O)[C@H](CCC(=O)O)NC(=O)[C@H](CCC(=O)O)NC(=O)[C@H](Cc1c[nH]c2ccccc12)NC(=O)[C@@H]1CCCN1C(=O)[C@@H](NC(=O)[C@H](CCC(N)=O)NC(=O)c1ccc2c(c1)C(=O)OC21c2ccc(O)cc2Oc2cc(O)ccc21)C(C)C)C(=O)N[C@H](C(=O)N[C@@H](CCCCN)C(=O)N[C@@H](CCCCN)C(=O)N[C@@H](CO)C(=O)N[C@@H](CO)C(=O)NCC(=O)NCC(N)=O)C(C)C
share of responses (nerve branching; human head and neck surgery, nerves; 500 mg, not improved; reference: white light): 69.2%

CN(C(=O)n1cnc(-c2ccc[n+]([O-])c2)c1)C1CCCCC1
AUC(0-t) (measured: LEA; human, plasma; 1.25 mg single dose): 227 ng·h/mL

CSCCNc1nc(SCCC(F)(F)F)nc2c1ncn2[C@@H]1O[C@H](COP(=O)(O)OP(=O)(O)C(Cl)(Cl)P(=O)(O)O)[C@@H](O)[C@H]1O
patients with IPA above threshold (platelet aggregation, light transmittance aggregometry; human, platelet-rich plasma; dose not given, 30 min, IPA above 80 %, with: TRAP 5 µM; reference: patients): 7.7%

O=C(O)/C=C/CC(=O)O
z-scored log2 fold change (binding, equilibrium dialysis LC-MS; 5 µM, thermostabilized A2AR-BRIL construct; reference: no-protein control, direction not given): 0.299

CCN1CCN(Cc2ccc(Nc3ncc(F)c(-c4cc(F)c5nc6n(c5c4)[C@H](C)CCC6)n3)nc2)CC1
objective response rate (human advanced solid tumours; 500 mg, phase Ia monotherapy RECIST 1.1): 16.7%

O=P(O)(O)C(Cl)(Cl)P(=O)(O)O
Iba1-positive area (immunostaining; mouse, sham-operated, hippocampal fissure; dose not given, day 1; reference: total area): 0.46%

O=C1O[C@H]([C@@H](O)CO)C(O)=C1O
inhibition (superoxide scavenging; 160 µM): 66.8%

NC(=O)c1cnc2[nH]ccc2c1N[C@@H]1[C@@H]2CC3C[C@H]1C[C@@](O)(C3)C2
change from baseline (flow cytometry, measured: CD8+ effector memory T cells; Japanese healthy subjects, peripheral blood; oral, 100 mg twice daily, day 4): 0.18%

COc1cc(Nc2ncc3c(n2)-c2ccc(Cl)cc2C(c2c(F)cccc2OC)=NC3)ccc1C(=O)O
median response score (mouse, NB-EBc1 neuroblastoma xenograft; 2.6 mg/kg; direction not given): 2

OC(CCN1CCCCC1)(c1ccccc1)C1CC2C=CC1C2 (stereo not drawn)
EEG Beta3-power Pz-O2 (resting-state EEG; healthy elderly humans; oral, 4 mg, eyes open, LS mean): 1.8 µV²

CC(C)[C@H](C(=O)Nc1ccc(C(=O)NO)cc1)c1ccccc1
tumour growth rate (volumetric MRI; human, right meningioma; dose not given, day 373): 0 %/year

Cc1n[nH]c2ccc(-c3cc(OC[C@@H](N)Cc4ccccc4)cnc3-c3ccoc3)cc12
log2 fold change (kinase binding, competitor, MIB/MS competition, measured: CKA1; Candida albicans cell lysate; 1 µM; reference: DMSO): 0.0806

COc1nc(-c2cc(C)c(N[C@@H](C)c3cc(F)cc(F)c3)nn2)ccc1-n1cnc(C)c1
change in level (measured: Aβ40; rat Sprague-Dawley male, CSF; oral, 25 mg/kg daily for 9 days, 4 h after dose; reference: vehicle): 66%

C=CCn1c(=O)c2cnc(Nc3ccc(N4CCN(C)CC4)cc3)nc2n1-c1ccc2c(n1)[C@@](O)(CC)CC2
tumour volume difference (Calu-3, NOD/SCID mice, xenograft; oral, 80 mg/kg once daily, day 28; reference: vehicle): 310 ± 17.7 mm3

Cc1cc([C@H]2C[C@H]3[C@@H](CF)SC(N)=N[C@@]3(c3ccc(F)cc3F)CO2)on1
brain Aβ40 level (measured: Aβx-40; wild-type mouse, brain; subcutaneous, 30 mg/kg, 5 h): 2.2 ng/g

CC(=O)N[C@H]1[C@H](O[C@H]2[C@H](O)[C@@H](NC(C)=O)C(O)O[C@@H]2CO)O[C@H](CO)[C@@H](O)[C@@H]1O (stereo partly drawn)
z-scored log2 fold change (binding, equilibrium dialysis LC-MS; 5 µM, thermostabilized A2AR-BRIL construct; reference: no-protein control, direction not given): 0.22

CN[C@@H]1COc2c(S(=O)(=O)NC(=O)Nc3c4c(cc5c3CCC5)CCC4)cnn2C1
inhibition (measured: IL-1β; human participants, whole blood ex vivo; 900 mg twice daily, multiple doses, 12 h, with: LPS/ATP; reference: baseline): 99.5%

CO[C@H]1CC[C@H](N2C(=O)CNc3ncc(-c4ccc(C(C)(C)O)nc4)nc32)CC1
pS6RP change from baseline (flow cytometry; stimulated B cells, human, blood; 60 mg single dose, 3 h, mean; reference: baseline): -72.2%

CCCC(=O)SCCNC(=O)CCNC(=O)[C@H](O)C(C)(C)COP(=O)(O)OP(=O)(O)OC[C@H]1O[C@@H](n2cnc3c(N)ncnc32)[C@H](O)[C@@H]1OP(=O)(O)O
z-scored log2 fold change (binding, equilibrium dialysis LC-MS; 5 µM, thermostabilized A2AR-BRIL construct; reference: no-protein control, direction not given): -0.228

COc1cc2cc(-c3ccc(CC(=O)Nc4cc(C(C)(C)C(F)(F)F)no4)cn3)cnc2cc1OC
objective response rate (RECIST v1.1; human RET-altered solid tumours; 11 50 mg tablets, phase I): 11%

C[C@H]1C[C@H]2CSC(N)=N[C@@]2(c2nc(NC(=O)c3ccc(OC(F)F)cn3)cs2)CO1
percent change from baseline (measured: Aβx-40; healthy adults, plasma; 5 mg once daily, day 7; reference: placebo): -41.1%

O=C(O)c1ccc(O)cc1
radical scavenging (DPPH radical; 300 µg/mL): 12.6 ± 1.38%

O=c1ccn([C@H]2C[C@H](O)[C@@H](COP(=O)(O)OP(=O)(O)OP(=O)(O)O)O2)c(=O)[nH]1
z-scored log2 fold change (binding, equilibrium dialysis LC-MS; 5 µM, thermostabilized A2AR-BRIL construct; reference: no-protein control, direction not given): -6.64

COc1cc2nccc(Oc3ccc(NC(=O)C4(C(=O)Nc5ccc(F)cc5)CC4)cc3)c2cc1OC
inhibition (NLRP3 inflammasome (mouse); mouse BMDM; 10 µM): 5.9%

CC1(C)CCC(CN2CCN(c3ccc(C(=O)NS(=O)(=O)c4ccc(NCC5CCOCC5)c([N+](=O)[O-])c4)c(Oc4cnc5[nH]ccc5c4)c3)CC2)=C(c2ccc(Cl)cc2)C1
EC50 (cell kill; primary neoplastic T lymphocytes, dog 17; 24 h, T-cell CLL): 43 nM

Nc1ccccc1C(=O)C[C@H](N)C(=O)O
z-scored log2 fold change (binding, equilibrium dialysis LC-MS; 5 µM, thermostabilized A2AR-BRIL construct; reference: no-protein control, direction not given): 0.17

COC(=O)CCc1ccc(OCC(O)CNC(C)C)cc1 (stereo not drawn)
diastolic blood pressure change (healthy male humans; dose not given, 5 min, with: saline; reference: baseline): -1.3 mm Hg

c1ccc(-c2n[nH]cc2-c2ccnc3ccccc23)nc1
log2 fold change (kinase binding, competitor, MIB/MS competition, measured: YCK2; Candida albicans cell lysate; 1 µM; reference: DMSO): 0.0386

CC[C@@H]1[C@H](F)C(=O)N[C@@H]1COc1nccc2cc(C(N)=O)c(OC)cc12
inhibition (ATP-site probe binding, ActivX profiling, measured: MAP3K2, MAP3K3; THP-1 cell lysate; 0.04 mM, Lys2 site): 1.8%

O=C(CO)[C@@H](O)[C@H](O)CO
z-scored log2 fold change (binding, equilibrium dialysis LC-MS; 5 µM, thermostabilized A2AR-BRIL construct; reference: no-protein control, direction not given): -0.0354

CCOc1c([C@H](C)n2nc(C)c3c(N)ncnc32)cc(Cl)c(F)c1[C@@H]1CNC(=O)C1
plasma protein level change (Olink proximity extension proteomics, measured: SERPINA9; human FL or MZL patients, plasma; dose not given, week 8; reference: baseline): -74%

Cn1cnc(C[C@H](N)C(=O)O)c1
z-scored log2 fold change (binding, equilibrium dialysis LC-MS; 5 µM, thermostabilized A2AR-BRIL construct; reference: no-protein control, direction not given): 0.216

Cc1cc(C)c(CNC(=O)c2cc(Cl)c3c(c2C)O[C@@](C)([C@H]2CC[C@H](N(C)C)CC2)O3)c(=O)[nH]1
best overall response PR (IWG 2007 criteria; human, relapsed/refractory B-cell NHL; dose not given): 37%

CC(C)NCC(O)c1ccc(O)c(O)c1 (stereo not drawn)
sarcomere length (ventricular cardiomyocytes, C57BL/6 mouse; dose not given, 0.112 s): 1.71 µm

N#Cc1ccn2c(-c3ccncc3)c(-c3ccc(F)cc3)nc2c1
log2 fold change (kinase binding, competitor, MIB/MS competition, measured: IRE1; Candida albicans cell lysate; 100 nM; reference: DMSO): -0.336

For quick reference, copied from above:
O=C1O[C@H]([C@@H](O)CO)C(O)=C1O
inhibition (superoxide scavenging; 160 µM): 66.8%

COc1cc(Nc2ncc3c(n2)-c2ccc(Cl)cc2C(c2c(F)cccc2OC)=NC3)ccc1C(=O)O
median response score (mouse, NB-EBc1 neuroblastoma xenograft; 2.6 mg/kg; direction not given): 2

CCOC(=O)NCc1ccc(O)cc1
radical scavenging (DPPH radical; 300 µg/mL): 7.33 ± 1.57%
